Earlier results as cited in several papers.
Compare with care: the assays were run in different laboratories. Values joined by “and” are separate records of one study, mostly repeats; a detail may differ. Numbers after ± are the reported error. In brackets after ≈: the same amount, converted by molar mass.
Sequence of UniProt Q9UM73 (whole entry, unmodified, looked up): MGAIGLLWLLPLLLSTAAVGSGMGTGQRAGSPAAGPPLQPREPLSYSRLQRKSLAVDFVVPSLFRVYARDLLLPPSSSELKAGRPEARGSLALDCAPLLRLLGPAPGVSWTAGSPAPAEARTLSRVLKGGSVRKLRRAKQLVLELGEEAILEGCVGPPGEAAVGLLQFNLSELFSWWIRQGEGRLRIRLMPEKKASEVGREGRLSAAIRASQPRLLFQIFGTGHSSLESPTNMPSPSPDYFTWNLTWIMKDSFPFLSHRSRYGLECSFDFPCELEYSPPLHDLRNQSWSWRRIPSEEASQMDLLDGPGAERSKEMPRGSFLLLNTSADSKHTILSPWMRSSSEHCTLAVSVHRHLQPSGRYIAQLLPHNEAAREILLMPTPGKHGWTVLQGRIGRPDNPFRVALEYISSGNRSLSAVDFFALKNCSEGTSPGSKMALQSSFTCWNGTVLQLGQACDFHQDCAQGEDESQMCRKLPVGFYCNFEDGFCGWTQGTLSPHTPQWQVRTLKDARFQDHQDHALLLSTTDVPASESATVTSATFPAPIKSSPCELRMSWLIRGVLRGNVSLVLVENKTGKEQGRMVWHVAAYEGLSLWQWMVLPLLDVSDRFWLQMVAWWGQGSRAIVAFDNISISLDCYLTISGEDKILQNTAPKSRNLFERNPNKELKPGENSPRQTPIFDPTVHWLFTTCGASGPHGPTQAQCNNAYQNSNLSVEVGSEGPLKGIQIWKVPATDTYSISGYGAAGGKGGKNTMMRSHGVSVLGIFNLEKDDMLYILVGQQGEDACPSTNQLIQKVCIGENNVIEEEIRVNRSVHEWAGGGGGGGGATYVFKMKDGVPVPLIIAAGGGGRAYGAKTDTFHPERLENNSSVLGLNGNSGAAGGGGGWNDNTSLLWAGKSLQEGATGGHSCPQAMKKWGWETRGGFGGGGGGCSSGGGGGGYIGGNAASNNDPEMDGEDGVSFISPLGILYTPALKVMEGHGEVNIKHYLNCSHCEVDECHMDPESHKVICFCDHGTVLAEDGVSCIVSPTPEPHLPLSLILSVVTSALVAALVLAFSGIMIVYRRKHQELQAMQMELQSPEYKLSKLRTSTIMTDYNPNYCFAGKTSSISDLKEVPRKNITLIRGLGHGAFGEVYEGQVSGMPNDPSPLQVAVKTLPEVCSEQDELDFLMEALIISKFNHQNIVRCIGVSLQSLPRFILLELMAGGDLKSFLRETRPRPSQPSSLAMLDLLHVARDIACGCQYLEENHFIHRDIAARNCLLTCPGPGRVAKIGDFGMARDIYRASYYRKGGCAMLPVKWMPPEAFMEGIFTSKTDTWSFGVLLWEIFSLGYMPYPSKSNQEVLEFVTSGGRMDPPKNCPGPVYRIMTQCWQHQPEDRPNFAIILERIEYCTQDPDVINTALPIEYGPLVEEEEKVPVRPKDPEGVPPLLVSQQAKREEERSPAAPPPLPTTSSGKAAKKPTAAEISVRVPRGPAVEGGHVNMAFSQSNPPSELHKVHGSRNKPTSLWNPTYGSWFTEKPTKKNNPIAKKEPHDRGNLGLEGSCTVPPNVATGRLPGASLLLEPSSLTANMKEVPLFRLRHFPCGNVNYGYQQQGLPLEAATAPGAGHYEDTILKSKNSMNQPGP
Sequence of UniProt P06536 (whole entry, looked up): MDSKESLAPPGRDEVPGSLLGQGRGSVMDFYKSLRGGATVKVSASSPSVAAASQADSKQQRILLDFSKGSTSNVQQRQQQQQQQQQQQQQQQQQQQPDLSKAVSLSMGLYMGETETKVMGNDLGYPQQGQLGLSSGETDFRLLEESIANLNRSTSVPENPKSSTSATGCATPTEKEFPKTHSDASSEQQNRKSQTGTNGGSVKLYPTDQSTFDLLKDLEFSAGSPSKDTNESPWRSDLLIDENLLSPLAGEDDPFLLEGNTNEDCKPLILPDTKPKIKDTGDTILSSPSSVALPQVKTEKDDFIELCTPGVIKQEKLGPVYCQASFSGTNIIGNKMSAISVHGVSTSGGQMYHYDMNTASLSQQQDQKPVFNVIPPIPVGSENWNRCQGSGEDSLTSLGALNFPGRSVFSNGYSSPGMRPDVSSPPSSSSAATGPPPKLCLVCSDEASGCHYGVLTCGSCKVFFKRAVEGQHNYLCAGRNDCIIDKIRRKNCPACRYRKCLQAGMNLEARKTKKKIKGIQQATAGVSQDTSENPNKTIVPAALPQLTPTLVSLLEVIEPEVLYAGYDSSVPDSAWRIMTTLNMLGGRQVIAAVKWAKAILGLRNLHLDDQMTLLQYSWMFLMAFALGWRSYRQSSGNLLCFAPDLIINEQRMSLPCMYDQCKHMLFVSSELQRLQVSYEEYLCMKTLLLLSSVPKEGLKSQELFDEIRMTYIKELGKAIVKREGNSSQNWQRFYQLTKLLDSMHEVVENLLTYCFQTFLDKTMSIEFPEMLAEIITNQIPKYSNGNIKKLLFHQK
Sequence of UniProt P18089 (whole entry, looked up): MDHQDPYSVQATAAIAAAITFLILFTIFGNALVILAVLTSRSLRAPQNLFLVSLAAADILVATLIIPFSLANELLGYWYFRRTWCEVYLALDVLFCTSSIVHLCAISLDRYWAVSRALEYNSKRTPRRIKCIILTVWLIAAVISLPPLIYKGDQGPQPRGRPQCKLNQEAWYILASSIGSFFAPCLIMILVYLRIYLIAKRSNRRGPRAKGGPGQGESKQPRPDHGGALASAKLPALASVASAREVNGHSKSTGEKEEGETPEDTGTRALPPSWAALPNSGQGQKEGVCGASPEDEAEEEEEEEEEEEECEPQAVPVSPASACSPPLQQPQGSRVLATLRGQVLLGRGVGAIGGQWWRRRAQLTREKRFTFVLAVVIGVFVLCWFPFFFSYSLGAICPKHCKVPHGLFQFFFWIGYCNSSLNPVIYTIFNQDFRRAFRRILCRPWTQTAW
Sequence of UniProt O96028 (whole entry, looked up): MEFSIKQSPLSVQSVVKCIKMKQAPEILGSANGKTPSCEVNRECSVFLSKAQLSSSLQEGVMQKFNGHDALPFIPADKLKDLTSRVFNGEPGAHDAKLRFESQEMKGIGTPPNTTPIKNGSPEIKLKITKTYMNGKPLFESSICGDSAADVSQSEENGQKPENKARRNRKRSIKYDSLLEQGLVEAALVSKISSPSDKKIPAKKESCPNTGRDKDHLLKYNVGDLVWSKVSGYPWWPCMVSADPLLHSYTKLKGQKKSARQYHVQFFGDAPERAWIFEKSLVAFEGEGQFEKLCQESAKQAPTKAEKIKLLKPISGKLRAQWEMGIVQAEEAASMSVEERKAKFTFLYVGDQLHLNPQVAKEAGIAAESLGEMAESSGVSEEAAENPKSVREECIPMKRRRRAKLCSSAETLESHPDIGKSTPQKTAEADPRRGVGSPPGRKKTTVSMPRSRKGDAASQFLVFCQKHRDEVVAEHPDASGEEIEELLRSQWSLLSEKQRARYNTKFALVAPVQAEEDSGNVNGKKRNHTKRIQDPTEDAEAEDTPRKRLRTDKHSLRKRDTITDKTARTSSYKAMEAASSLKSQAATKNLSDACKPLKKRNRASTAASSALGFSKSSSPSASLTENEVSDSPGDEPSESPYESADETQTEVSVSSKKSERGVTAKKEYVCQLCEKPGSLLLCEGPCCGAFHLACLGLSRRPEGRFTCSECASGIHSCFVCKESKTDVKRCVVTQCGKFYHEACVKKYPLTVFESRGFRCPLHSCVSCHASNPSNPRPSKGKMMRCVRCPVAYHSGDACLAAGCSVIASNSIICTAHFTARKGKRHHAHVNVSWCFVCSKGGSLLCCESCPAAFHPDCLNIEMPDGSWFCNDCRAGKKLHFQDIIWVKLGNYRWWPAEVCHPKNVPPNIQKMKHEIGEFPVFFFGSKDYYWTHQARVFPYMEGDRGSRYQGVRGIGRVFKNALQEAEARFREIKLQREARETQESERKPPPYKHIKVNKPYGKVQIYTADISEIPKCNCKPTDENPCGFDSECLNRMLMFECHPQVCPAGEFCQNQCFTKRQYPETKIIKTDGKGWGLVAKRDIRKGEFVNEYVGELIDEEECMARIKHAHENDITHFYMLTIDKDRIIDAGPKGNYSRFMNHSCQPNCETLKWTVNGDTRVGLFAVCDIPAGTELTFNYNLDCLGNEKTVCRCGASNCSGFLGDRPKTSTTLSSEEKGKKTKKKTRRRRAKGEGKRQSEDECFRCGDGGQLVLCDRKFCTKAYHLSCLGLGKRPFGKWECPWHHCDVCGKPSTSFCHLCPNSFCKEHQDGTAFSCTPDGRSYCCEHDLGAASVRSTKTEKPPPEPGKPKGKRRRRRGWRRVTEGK

| Structure (SMILES) | tested on | assay | system | conditions | how to read | endpoint | result |
| --- | --- | --- | --- | --- | --- | --- | --- |
| COc1cc2oc(-c3ccc(O)c(O)c3)cc(=O)c2c(O)c1O | Hepatitis C virus | viral replication and release | – | concentration not given | – | inhibition | no inhibition |
| O=C(C1CCCCC1)N1CC(=O)N2CCc3ccccc3[C@H]2C1 | Schistosoma mansoni | – | infected mice | 400 mg/kg | baseline: untreated | worm burden reduction | 18% |
| [N-]=[N+]=N[C@]1(CO)O[C@@H](n2ccc(N)nc2=O)[C@@H](F)[C@@H]1O | HIV-1 | viral replication | C8166 | – | – | EC50 | 30 to 370 nM |
| O=c1c(O)c(-c2ccc(O)c(O)c2)oc2cc(O)cc(O)c12 | human cytomegalovirus | viral replication | – | – | – | IC50 | 5.93 µg/mL |
| CCc1cc(F)c(Cc2cnc(Nc3ccc(C#N)c(Cl)c3)o2)c(F)c1 | HIV-1 | viral replication | MT2 cells, IIIB wild type | – | – | EC50 | 1 nM |
| CCN(c1cc(-c2ccc(CN3CCOCC3)cc2)cc(C(=O)NCc2c(C)cc(C)[nH]c2=O)c1C)C1CCOCC1 | NSD2 (Homo sapiens, UniProt O96028) | enzyme activity, inhibitor | – | 1 µM | – | inhibition | 8 ± 3% |
| C[C@H]1COCCN1c1nc(-c2cnc(N)cc2C(F)F)nc(N2CCOCC2)n1 | RPMI-7951 | – | – | – | – | GI50 | 300 nM |
| CNCc1cc(-c2ccccc2F)n(S(=O)(=O)c2cccnc2)c1 | – | – | human | 15 mg, single dose | – | AUC(0-inf) | 107 ng·h/mL |
| Oc1ccc(-c2nc(-c3ccc(OC4CCCC4)cc3)no2)cc1 | Corynebacterium sp. | – | HM-784 | – | – | MIC | 0.5 µg/mL (≈ 1.55 µM) |
| N#CSCCOc1ccc(Oc2ccccc2)cc1 | Trypanosoma cruzi | parasite growth | intracellular amastigotes | – | – | EC50 | 12000 nM |
| Cc1[nH]c(C)c(-c2ccc(OCc3ccccc3C(F)(F)F)nc2)c(=O)c1Br | Plasmodium falciparum | whole cell extended time | 3D7 | 72 h | – | IC50 | 20 nM |
| CNC(C)C1CCC(N)C(OC2C(N)CC(N)C(OC3OCC(C)(O)C(NC)C3O)C2O)O1 (stereo not shown) | Klebsiella pneumoniae | – | clinical isolate RKI-No_138/16 | – | – | MIC | 1 µg/mL (≈ 2.09 µM) |
| CNC(=O)[C@@]12C[C@@H]1[C@@H](n1cnc3c(NCc4cccc(Cl)c4)nc(C#Cc4ccc(F)c(F)c4)nc31)[C@H](O)[C@@H]2O | ADRA2B (Homo sapiens, UniProt P18089) | radioligand binding | – | – | – | Ki | 2900 nM |
| C=C[C@]1(C)C[C@@H](OC(=O)CSCCN(CC)CC)[C@]2(C)[C@H](C)CC[C@]3(CCC(=O)[C@H]32)[C@@H](C)[C@@H]1O | Mycoplasma gallisepticum | – | chickens | intramuscular, dose not given | – | required dose | 45 mg/kg |
| Cc1cccc(C)c1OCC(=O)N[C@@H](Cc1ccccc1)[C@@H](O)C[C@H](Cc1ccccc1)NC(=O)[C@H](C(C)C)N1CCCNC1=O | Human immunodeficiency virus | viral replication | – | – | – | EC50 | 0.07 µg/mL |
| CC1(C)NC(=O)N(c2ccc(F)c(C(C)(F)F)c2)C1=O | Schistosoma mansoni | – | juvenile, infected mice | oral, 50 mg/kg single dose | – | worm burden reduction | 50% |
| Oc1ccc(-c2nc(-c3ccc(OC4CCCC4)cc3)no2)cc1 | Enterobacter aerogenes | – | ATCC 35029 | – | – | MIC | > 128 µg/mL |
| Cc1[nH]c(C)c(-c2ccc(-c3ccc(OC(F)(F)F)cc3)cc2)c(=O)c1Cl | Plasmodium falciparum | whole cell extended time | 3D7 | 72 h | – | IC50 | 40 nM |
| Cc1cc(NC(=O)c2cccc(NC(=O)/C=C/CN(C)C)c2)ccc1Nc1nccc(-c2cccnc2)n1 | ROCK2 (Homo sapiens, UniProt O75116) | enzyme activity, inhibitor | – | 1 µM | baseline: vehicle | remaining activity | 49% |
| Cn1c(Cn2ccc(C(F)(F)F)c(Oc3cc(Cl)cc(C#N)c3)c2=O)n[nH]c1=O | HIV-1 | viral replication | wild type | 50% human serum | – | EC95 | 20 nM |
| CCC(=O)O[C@]1(C(=O)SCF)[C@H](C)C[C@H]2[C@@H]3C[C@H](F)C4=CC(=O)C=C[C@]4(C)[C@@]3(F)[C@@H](O)C[C@@]21C | Nr3c1 (Rattus norvegicus, UniProt P06536) | – | rat, spleen | intravenous, 90 nmol/kg, 2.017 (unit not given) | – | receptor occupancy | 35.3% |
| COc1ccccc1Oc1cccc(CN2CCC(NC(=O)C(CCN3CCCC3)c3ccccc3)CC2)c1 (stereo not shown) | human CCR8 F46A mutant (TM1) | IP accumulation, agonist | – | – | – | EC50 | 43 nM |

| Structure (SMILES) | tested on | assay | system | conditions | how to read | endpoint | result |
| --- | --- | --- | --- | --- | --- | --- | --- |
| CC1(C)S[C@@H]2[C@H](NC(=O)[C@H](N)c3ccccc3)C(=O)N2[C@H]1C(=O)O | Acinetobacter baumannii | – | clinical isolate RKI-No_4/15 | – | – | MIC | > 16 µg/mL |
| Cc1[nH]c(C)c(-c2ccc(-c3ccc(OC(F)(F)F)cc3)nc2)c(=O)c1Cl | Plasmodium falciparum | whole cell extended time | 3D7 | 72 h | – | IC50 | 200 nM |
| CCc1c(Cl)c(O)c(Cl)c(O)c1C(=O)O[C@H]1[C@H](O)[C@H](OC)[C@H](OC/C2=C\C=C\C[C@H](O)/C(C)=C/[C@H](CC)[C@@H](O[C@@H]3OC(C)(C)[C@@H](OC(=O)C(C)C)[C@H](O)[C@@H]3O)/C(C)=C/C(C)=C/C[C@@H]([C@@H](C)O)OC2=O)O[C@@H]1C | Enterobacter aerogenes | – | ATCC 35029 | – | – | MIC | > 128 µg/mL |
| FC(F)(F)c1ccc(Oc2ccc(-c3noc(-c4ccc5[nH]ccc5c4)n3)cc2)cc1 | Pseudomonas aeruginosa | – | ATCC 27853 | – | – | MIC | > 128 µg/mL |
| Nc1cc(C(F)(F)F)c(-c2nc(N3CCOCC3)nc(N3CCOCC3)n2)cn1 | ALK (Homo sapiens, UniProt Q9UM73, L1196M) | enzyme activity | – | 10 µM | baseline: untreated | remaining activity | 95% |
| CC(C)N(Cc1cnc2nc(N)nc(N)c2n1)c1ccc(Cl)c(Cl)c1 | Plasmodium falciparum | whole cell extended time | 3D7 | 72 h | – | IC50 | 160 nM |
| O=C(Nc1nc2ccccc2[nH]1)c1ccccc1 | ATAD5 | – | – | PubChem AID 504466 | – | activity | 0.5 µM |
| Cc1cnc(N2CC3(CCOCC3)C2)c(C(=O)Nc2ccc(C(=O)N3CCc4cc(C(=O)Nc5c(C)cccc5F)sc4-c4ccccc43)cc2)c1 | respiratory syncytial virus | cytopathic effect | 5 subtype B clinical isolates | – | – | median IC90 | 0.36 µg/mL |
| COc1ccc(-c2cc(NC(=O)c3ccc(Cl)cc3F)ccc2OC)cc1 | Mycobacterium tuberculosis | – | – | – | – | MIC90 | 12.5 µM |
| O=[N+]([O-])c1c[nH]c(-c2nc(-c3ccc(OC4CCCC4)cc3)no2)n1 | Clostridioides difficile | – | vegetative cells | – | – | MIC90 | 1 µg/mL |
| CCOC(=O)C(c1c(O)ccc2ccccc12)N1CCOCC1 (stereo not shown) | Staphylococcus aureus | efflux pump inhibition | ATCC 25923 | 50 µM | baseline: untreated cells | relative fluorescence index | 1.1 |
| CC(Cl)=CCc1c(C)[nH]c2c(ccc3ccccc32)c1=O | Plasmodium falciparum | whole cell extended time | 3D7 | 72 h | – | IC50 | 200 nM |
| CC(=O)Nc1ccc(O)cc1 | CYP2D6 | substrate | – | – | – | Km | 440 µM |
| CC(C)C[C@@H](C=O)NC(=O)[C@H](CC(C)C)NC(=O)[C@H](CC(C)C)NC(=O)OCc1ccccc1 | Schistosoma mansoni | – | mouse | dose not given | – | reduction in infected mice | 96% |
| Cc1[nH]c(C)c(-c2ccc(OCc3cccc(C(F)(F)F)c3)nc2)c(=O)c1Br | Plasmodium falciparum | whole cell extended time | 3D7 | 72 h | – | IC50 | 40 nM |
| CCc1c(Cl)c(O)c(Cl)c(O)c1C(=O)O[C@H]1[C@H](O)[C@H](OC)[C@H](OC/C2=C\C=C\C[C@H](O)/C(C)=C/[C@H](CC)[C@@H](O[C@@H]3OC(C)(C)[C@@H](OC(=O)C(C)C)[C@H](O)[C@@H]3O)/C(C)=C/C(C)=C/C[C@@H]([C@@H](C)O)OC2=O)O[C@@H]1C | Clostridioides difficile | – | NAP7 ribotype 078 | – | – | MIC | ≤ 0.01 µg/mL |
| O=C(c1cc(-c2ccco2)[nH]n1)N1CCN(S(=O)(=O)c2ccc(Br)cc2)CC1 | Plasmodium falciparum | whole cell extended time | 3D7 | 72 h | – | IC50 | 500 nM |
| N#C/C=C/c1ccc2c(S(=O)(=O)n3nc(Nc4ccc(C#N)c(Cl)c4)nc3N)cccc2c1 | HIV-1 | viral replication | TZM-bl, IIIB wild type | – | – | EC50 | 0.24 nM |
| Cl.N=C(CC(O)c1cc2c(F)cc(F)cc2c2cc(C(F)(F)F)ccc12)Nc1ccc(F)c(F)c1 (stereo not shown) | Plasmodium berghei | – | ANKA, mouse | oral, 50 mg/kg for 4 doses, day 4 | baseline: vehicle | parasitaemia reduction | 99.7% and > 99% |
| Cc1cccc2nc(-c3ccc(-c4cccc(CNCCCN5CCCC5=O)c4)cc3)[nH]c12 | Plasmodium falciparum | whole cell extended time | 3D7 | 72 h | – | IC50 | 840 nM |
| Cc1ccc(Oc2ccc(NC(=O)CNc3ccccc3N3CCCC3=O)cc2)cc1 | Plasmodium falciparum | parasite growth | 3D7 population D CSC1 L954F | – | – | EC50 | 10000 nM |
